Assay results gathered from unrelated publications.
Each line is one published result; not all experiments were run side by side.
Organism: Escherichia coli

CC[C@H](C)[C@H](NC(=O)[C@H](CC(C)C)NC(=O)[C@H](CCCNC(=N)N)NC(=O)[C@@H](N)CCCNC(=N)N)C(=O)N[C@@H](CCCNC(=N)N)C(=O)N[C@@H](CCCCN)C(=O)N[C@@H](CC(C)C)C(=O)N[C@@H](CCCCN)C(=O)NCC(=O)N[C@@H](CC(C)C)C(=O)N[C@@H](CCCCN)C(=O)N[C@@H](CCCCN)C(=O)N[C@@H](Cc1ccc(O)cc1)C(=O)N[C@@H](CC(C)C)C(=O)N[C@@H](Cc1ccc(O)cc1)C(=O)N[C@@H](Cc1ccccc1)C(=O)N[C@@H](CCCCN)C(=O)N[C@@H](CC(C)C)C(=O)N[C@@H](CCC(N)=O)C(=O)N[C@@H](CC(C)C)C(=O)N[C@@H](CC(C)C)C(=O)N[C@@H](CCCCN)C(=O)N[C@@H](CCCCN)C(N)=O  MIC (broth microdilution; KCTC 1682, Mueller-Hinton broth; 24 h, 37 °C): 4 µM
CC[C@H](C)[C@H](N)C(=O)N[C@@H](CC(C)C)C(=O)NCC(=O)N[C@H](CCCNC(=N)N)C(=O)N[C@H](C(=O)N[C@@H](Cc1c[nH]c2ccccc12)C(=O)N[C@@H](CCCCN)C(=O)NCC(=O)N[C@H](C(=O)N[C@@H](CCCCN)C(=O)N[C@@H](CC(=O)O)C(=O)N[C@H](C(=O)N[C@@H](CC(C)C)C(N)=O)[C@@H](C)CC)[C@@H](C)CC)[C@@H](C)CC  MIC (broth microdilution; ATCC 25922; added: KCl 4.5 mM): 12.5 µM
CO[C@@H](C(N)=O)[C@H](NC(=O)c1ccc(NC(=O)c2ccc(C#N)cc2)cc1)C(=O)Nc1ccc(C(=O)Nc2ccc(C(=O)Nc3ccc(C(=O)O)cc3)c(O)c2OC(C)C)cc1  MIC (K12 ΔtolC): < 0.03 µg/mL
CC[C@H](C)[C@H](NC(=O)[C@H](CCCNC(=N)N)NC(=O)[C@H](CCCNC(=N)N)NC(=O)[C@H](CCCNC(=N)N)NC(=O)[C@H](CCCNC(=N)N)NC(=O)[C@H](CCCNC(=N)N)NC(=O)[C@@H](N)CCCNC(=N)N)C(=O)N[C@@H](CO)C(=O)N[C@@H](Cc1ccccc1)C(=O)N[C@@H](CC(C)C)C(=O)NCC(=O)N[C@@H](CO)C(=O)N[C@@H](CCCCN)C(=O)N[C@H](C(=O)N[C@H](C(=O)N[C@H](C(=O)N[C@@H](CC(C)C)C(=O)N[C@@H](CC(C)C)C(=O)N[C@@H](CCCCN)C(=O)N[C@@H](CCCNC(=N)N)C(=O)N[C@@H](CCCNC(=N)N)C(=O)N[C@@H](CCCNC(=N)N)C(=O)N[C@@H](CCCNC(=N)N)C(=O)N[C@@H](CCCNC(=N)N)C(N)=O)C(C)C)C(C)C)C(C)C  MIC (checkerboard; 24 h, 37 °C, alone, azithromycin plate): 4 µM
CC1(C)SC2C(NC(=O)C(NC(=O)C3=C(O)C(Cc4ccccc4)NC3=O)c3ccccc3)C(=O)N2C1C(=O)O (centres unmarked)  MIC (broth microdilution; Keio mutant JW5195-1; 18 h): 25 µg/mL
N=C(N)NCCC[C@H](NC(=O)[C@@H](N)CCCNC(=N)N)C(=O)N[C@@H](Cc1c[nH]c2ccccc12)C(=O)N[C@@H](Cc1c[nH]c2ccccc12)C(=O)N[C@@H](CCC(N)=O)C(=O)N[C@@H](Cc1ccccc1)C(=O)N[C@@H](CCC(N)=O)C(=O)N[C@@H](Cc1ccccc1)C(=O)N[C@@H](CCCCN)C(N)=O  MIC (broth microdilution, optical density): 4.8 µM
CC(C)(O/N=C(\C(=O)N[C@@H]1C(=O)N2C(C(=O)[O-])=C(C[n+]3ccccc3)CS[C@H]12)c1csc(N)n1)C(=O)O  MIC (DH5α cloned blaKPC-144): 32 µg/mL
O=C(O)CN(CC(=O)O)CC(=O)O  MIC (ATCC 25922, no carbapenemase; 32 µg/mL, MIC of meropenem, added: meropenem): ≤ 0.0625 µg/mL
C[C@H]1[C@H](NC(=O)/C(=N\OC(C)(C)C(=O)O)c2csc(N)n2)C(=O)N1S(=O)(=O)O  MIC (agar dilution; 08-85 mcr-1): 4 µg/mL
CC[C@H](C)[C@H](NC(=O)CN)C(=O)N[C@@H](CC(C)C)C(=O)N[C@@H](CC(=O)O)C(=O)N[C@@H](C)C(=O)N[C@H](C(=O)N[C@@H](CCCCN)C(=O)N[C@@H](C)C(=O)N[C@H](C(=O)N[C@@H](C)C(=O)N[C@@H](CCCCN)C(=O)N[C@@H](C)C(=O)N[C@H](C(=O)N[C@@H](CCCCN)C(=O)N[C@@H](C)C(=O)N[C@@H](CCCCN)C(=O)N[C@@H](C)C(=O)NCC(N)=O)[C@@H](C)CC)[C@@H](C)CC)[C@@H](C)CC  MIC (ATCC 25922, Mueller-Hinton broth; 12 h, 37 °C): 8 µg/mL
CC[C@H](C)[C@H](NC(=O)CNC(=O)[C@H](CC(=O)O)NC(=O)[C@H](CCCNC(=N)N)NC(=O)[C@@H](NC(=O)[C@H](CC(N)=O)NC(=O)[C@H](CCC(=O)O)NC(=O)CNC(=O)[C@@H](NC(=O)[C@H](CCCCN)NC(=O)[C@H](CCC(=O)O)NC(=O)[C@@H](NC(=O)[C@H](CCCCN)NC(=O)[C@H](CCCCN)NC(=O)[C@H](Cc1ccccc1)NC(=O)[C@@H](NC(=O)[C@H](CCCCN)NC(=O)[C@H](Cc1c[nH]c2ccccc12)NC(=O)[C@@H](N)CCCNC(=N)N)[C@@H](C)CC)[C@@H](C)CC)C(C)C)C(C)C)C(=O)N[C@H](C(=O)N[C@@H](CCCCN)C(=O)N[C@@H](C)C(=O)NCC(=O)N1CCC[C@H]1C(=O)N[C@@H](C)C(=O)N[C@H](C(=O)N[C@@H](C)C(=O)N[C@H](C(=O)N[C@H](C(=O)NCC(=O)N[C@@H](CCC(N)=O)C(=O)N[C@@H](C)C(=O)N[C@@H](C)C(=O)N[C@H](C(=O)N[C@H](C(=O)N[C@H](C(=O)N[C@@H](CCCCN)C(N)=O)C(C)C)C(C)C)[C@@H](C)O)C(C)C)C(C)C)C(C)C)[C@@H](C)CC  MIC (KCTC 1682, Mueller-Hinton broth; 16 h, 37 °C; growth inhibition over 99%): 2 µM
C[C@H]1COCCN1c1nc(NCc2cccnc2C(F)(F)F)c2cccnc2n1  MIC (broth microdilution; NCTC 86): 128 µg/mL
CC[C@H](C)[C@H](NC(=O)[C@H](C)NC(=O)[C@@H]1CCCN1C(=O)[C@@H](NC(=O)[C@@H](NC(=O)[C@H](CS)NC(=O)[C@@H]1CCCN1C(=O)[C@H](CCC(=O)O)NC(=O)[C@@H]1CCCN1C(=O)[C@@H]1CCCN1C(=O)[C@@H](NC(=O)[C@@H](N)CCC(N)=O)C(C)C)[C@@H](C)O)[C@@H](C)CC)C(=O)N[C@H](C(=O)N[C@H](C(=O)N[C@@H](CCCCN)C(=O)N[C@H](C(=O)N[C@@H](CCC(N)=O)C(=O)N[C@@H](CCCNC(=N)N)C(=O)N[C@@H](CCCNC(=N)N)C(=O)N[C@@H](CCCNC(=N)N)C(=O)NCC(=O)N[C@@H](Cc1ccc(O)cc1)C(=O)N[C@H](C(=O)N[C@H](C(=O)N[C@@H](CO)C(=O)N[C@@H](CCCCN)C(=O)N[C@@H](CCCNC(=N)N)C(=O)N[C@@H](CCCNC(=N)N)C(=O)N[C@H](C(=O)N[C@@H](Cc1ccccc1)C(=O)O)C(C)C)[C@@H](C)CC)[C@@H](C)CC)[C@@H](C)CC)C(C)C)[C@@H](C)CC  MIC (broth microdilution; K88, Mueller-Hinton broth; 37 °C): 9.94 µM
CC1(C)SC2C(NC(=O)C(NC(=O)C3=C(O)C(Cc4ccc(O)cc4)NC3=O)c3ccccc3)C(=O)N2C1C(=O)O (centres unmarked)  MIC (broth microdilution; ATCC 35218, low-level TEM-1; added: clavulanic acid 6 µg/mL): 200 µg/mL
CC(C)C[C@@H](NC(=O)CNC(=O)[C@@H](CCCCN)NC(=O)[C@@H](CC(C)C)NC(=O)[C@@H](CCCCN)NC(=O)[C@@H](CCCNC(=N)N)NC(=O)[C@@H](CC(C)C)NC(=O)[C@@H](CC(C)C)NC(=O)[C@@H](CCCNC(=N)N)NC(=O)[C@H](N)CCCNC(=N)N)C(=O)N[C@H](CCCCN)C(=O)N[C@H](CCCCN)C(=O)N[C@H](Cc1ccc(O)cc1)C(=O)N[C@H](CC(C)C)C(=O)N[C@H](Cc1ccc(O)cc1)C(=O)N[C@H](Cc1ccccc1)C(=O)N[C@H](CCCCN)C(=O)N[C@H](CC(C)C)C(=O)N[C@H](CCC(N)=O)C(=O)N[C@H](CC(C)C)C(=O)N[C@H](CC(C)C)C(=O)N[C@H](CCCCN)C(=O)N[C@H](CCCCN)C(N)=O  MIC (KCTC 1682, Mueller-Hinton broth; added: 4.5 mM KCl): 8 µM
CC(C)Oc1c(NC(=O)c2ccc(NC(=O)[C@H](CC(N)=O)NC(=O)c3ccc(/N=N/c4ccc(N(C)C)cc4)cc3)cc2)ccc(C(=O)Nc2ccc(C(=O)O)cc2)c1O  MIC (BW25113; 18 h, 37 °C, dark-adapted state): 0.13 µg/mL
CC[C@H](C)[C@H](NC(=O)[C@H](CCCNC(=N)N)NC(=O)[C@H](Cc1ccc(O)cc1)NC(=O)CNC(=O)[C@H](Cc1ccc(O)cc1)NC(=O)[C@H](CCCNC(=N)N)NC(=O)[C@H](CC(C)C)NC(=O)[C@H](C)NC(=O)[C@H](CCC(N)=O)NC(=O)[C@H](CCC(=O)O)NC(=O)[C@@H](NC(=O)[C@H](CCC(N)=O)NC(=O)[C@H](CCCNC(=N)N)NC(=O)[C@H](CCSC)NC(=O)[C@H](Cc1ccc(O)cc1)NC(=O)[C@H](CCC(N)=O)NC(=O)[C@@H](N)CCCNC(=N)N)[C@@H](C)CC)C(=O)N[C@@H](CO)C(=O)N[C@@H](CCCNC(=N)N)C(=O)N[C@@H](CCCNC(=N)N)C(N)=O  MIC (broth dilution; K12 BW25113; 18 h, 37 °C): 5.9 µM
CC(=O)C1=C(O)C(CC(C)C)NC1=O (centres unmarked)  MIC (K12 ΔtolC): > 200 µg/mL
NCCCC1CN(c2ccc3c(n2)NC(=O)CO3)C(=O)O1 (centres unmarked)  MIC (ATCC 25922): 80 µg/mL
CC[C@H](C)[C@H](NC(=O)CNC(=O)[C@H](CC(=O)O)NC(=O)[C@H](CCCNC(=N)N)NC(=O)[C@@H](NC(=O)[C@H](CC(N)=O)NC(=O)[C@H](CCCNC(=N)N)NC(=O)CNC(=O)[C@@H](NC(=O)[C@H](CCCCN)NC(=O)[C@H](CCC(=O)O)NC(=O)[C@@H](NC(=O)[C@H](CCC(=O)O)NC(=O)[C@H](CCCCN)NC(=O)[C@H](Cc1ccccc1)NC(=O)[C@@H](NC(=O)[C@H](CCCCN)NC(=O)[C@H](Cc1c[nH]c2ccccc12)NC(=O)[C@@H](N)CCCNC(=N)N)[C@@H](C)CC)[C@@H](C)CC)C(C)C)C(C)C)C(=O)N[C@H](C(=O)N[C@@H](CCCCN)C(=O)N[C@@H](C)C(=O)NCC(=O)N1CCC[C@H]1C(=O)N[C@@H](C)C(=O)N[C@H](C(=O)N[C@@H](C)C(=O)N[C@H](C(=O)N[C@H](C(=O)NCC(=O)N[C@@H](CCC(N)=O)C(=O)N[C@@H](C)C(=O)N[C@@H](C)C(=O)N[C@H](C(=O)N[C@H](C(=O)N[C@H](C(=O)N[C@@H](CCCCN)C(N)=O)C(C)C)C(C)C)[C@@H](C)O)C(C)C)C(C)C)C(C)C)[C@@H](C)CC  MIC (KCTC 1682, Mueller-Hinton broth; 16 h, 37 °C; growth inhibition over 99%): 4 µM
